{"data": "Assay results pooled from the literature", "note": "Every numbered part comes from another study and shows a few of its results, in no order. Substitutions count along the parent as printed.", "UniProt Q96NX5, sequence (whole entry, looked up)": "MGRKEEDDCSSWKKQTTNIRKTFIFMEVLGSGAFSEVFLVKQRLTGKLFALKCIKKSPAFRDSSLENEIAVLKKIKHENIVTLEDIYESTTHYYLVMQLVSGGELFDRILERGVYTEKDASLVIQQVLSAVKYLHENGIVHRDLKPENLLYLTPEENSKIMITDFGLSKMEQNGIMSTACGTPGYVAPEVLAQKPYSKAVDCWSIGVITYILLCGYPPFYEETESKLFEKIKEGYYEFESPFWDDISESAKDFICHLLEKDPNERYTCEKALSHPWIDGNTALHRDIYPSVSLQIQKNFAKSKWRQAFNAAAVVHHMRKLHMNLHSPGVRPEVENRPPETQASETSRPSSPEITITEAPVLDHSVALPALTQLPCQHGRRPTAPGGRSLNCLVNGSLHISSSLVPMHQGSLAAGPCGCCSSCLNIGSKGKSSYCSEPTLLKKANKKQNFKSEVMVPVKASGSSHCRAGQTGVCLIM", "UniProt P08922, sequence (whole entry, looked up)": "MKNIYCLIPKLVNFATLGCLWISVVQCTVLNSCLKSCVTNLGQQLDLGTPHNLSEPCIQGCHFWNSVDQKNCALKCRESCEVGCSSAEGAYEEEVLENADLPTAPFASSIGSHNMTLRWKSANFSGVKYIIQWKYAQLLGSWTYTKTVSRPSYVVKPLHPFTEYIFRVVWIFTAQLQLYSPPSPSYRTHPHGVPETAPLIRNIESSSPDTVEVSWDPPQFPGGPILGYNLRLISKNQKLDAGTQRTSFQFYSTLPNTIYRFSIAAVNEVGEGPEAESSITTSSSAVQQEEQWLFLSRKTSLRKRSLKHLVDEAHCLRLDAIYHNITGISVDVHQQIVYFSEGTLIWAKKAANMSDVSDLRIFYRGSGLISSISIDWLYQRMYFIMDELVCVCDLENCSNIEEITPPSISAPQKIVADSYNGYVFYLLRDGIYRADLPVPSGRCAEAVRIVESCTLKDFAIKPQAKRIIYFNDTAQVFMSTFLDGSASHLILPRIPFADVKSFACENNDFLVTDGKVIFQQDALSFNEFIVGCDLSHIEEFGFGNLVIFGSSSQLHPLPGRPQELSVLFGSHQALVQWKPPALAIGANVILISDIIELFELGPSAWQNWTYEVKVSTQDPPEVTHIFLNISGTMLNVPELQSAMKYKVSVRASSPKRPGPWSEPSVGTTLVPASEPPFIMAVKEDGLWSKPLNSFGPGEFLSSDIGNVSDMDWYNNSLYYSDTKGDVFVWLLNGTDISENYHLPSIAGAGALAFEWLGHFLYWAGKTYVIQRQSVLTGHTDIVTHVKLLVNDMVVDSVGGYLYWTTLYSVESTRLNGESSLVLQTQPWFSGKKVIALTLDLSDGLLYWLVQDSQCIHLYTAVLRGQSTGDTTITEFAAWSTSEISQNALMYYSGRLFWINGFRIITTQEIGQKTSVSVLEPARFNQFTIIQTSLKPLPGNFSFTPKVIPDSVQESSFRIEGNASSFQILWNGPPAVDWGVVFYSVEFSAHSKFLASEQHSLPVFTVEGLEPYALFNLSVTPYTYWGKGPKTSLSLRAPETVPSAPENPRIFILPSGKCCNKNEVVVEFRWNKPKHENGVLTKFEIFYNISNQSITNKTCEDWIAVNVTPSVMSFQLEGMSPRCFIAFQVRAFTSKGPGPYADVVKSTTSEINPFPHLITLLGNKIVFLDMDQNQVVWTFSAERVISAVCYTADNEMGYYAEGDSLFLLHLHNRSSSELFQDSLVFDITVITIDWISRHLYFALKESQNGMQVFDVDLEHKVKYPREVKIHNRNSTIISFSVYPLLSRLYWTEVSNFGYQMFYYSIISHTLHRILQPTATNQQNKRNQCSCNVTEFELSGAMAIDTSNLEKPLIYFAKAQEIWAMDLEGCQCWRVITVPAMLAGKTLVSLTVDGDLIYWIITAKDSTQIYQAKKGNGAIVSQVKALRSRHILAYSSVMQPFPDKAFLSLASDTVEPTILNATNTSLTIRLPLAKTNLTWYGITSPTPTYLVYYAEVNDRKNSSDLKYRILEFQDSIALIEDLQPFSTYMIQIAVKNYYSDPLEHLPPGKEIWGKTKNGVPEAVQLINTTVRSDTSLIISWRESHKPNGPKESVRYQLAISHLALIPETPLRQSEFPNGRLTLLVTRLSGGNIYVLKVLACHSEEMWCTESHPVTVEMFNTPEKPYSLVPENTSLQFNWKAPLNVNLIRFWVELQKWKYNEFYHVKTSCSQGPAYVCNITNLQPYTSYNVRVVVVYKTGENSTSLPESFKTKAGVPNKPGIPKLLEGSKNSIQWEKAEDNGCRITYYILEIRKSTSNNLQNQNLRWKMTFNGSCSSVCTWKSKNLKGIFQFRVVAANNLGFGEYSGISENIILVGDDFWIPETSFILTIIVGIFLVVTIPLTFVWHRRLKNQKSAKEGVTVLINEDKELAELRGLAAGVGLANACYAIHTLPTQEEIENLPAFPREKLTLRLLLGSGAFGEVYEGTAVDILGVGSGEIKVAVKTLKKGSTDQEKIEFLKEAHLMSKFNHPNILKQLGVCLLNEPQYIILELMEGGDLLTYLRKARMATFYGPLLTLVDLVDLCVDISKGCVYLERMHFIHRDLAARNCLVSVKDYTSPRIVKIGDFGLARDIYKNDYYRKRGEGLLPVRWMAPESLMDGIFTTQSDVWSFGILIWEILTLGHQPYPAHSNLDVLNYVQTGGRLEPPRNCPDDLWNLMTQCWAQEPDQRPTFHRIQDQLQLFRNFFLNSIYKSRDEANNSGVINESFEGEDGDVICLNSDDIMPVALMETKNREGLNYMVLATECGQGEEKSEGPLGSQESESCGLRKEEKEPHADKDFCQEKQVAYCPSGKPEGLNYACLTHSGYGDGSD", "UniProt O75116, sequence (whole entry, looked up)": "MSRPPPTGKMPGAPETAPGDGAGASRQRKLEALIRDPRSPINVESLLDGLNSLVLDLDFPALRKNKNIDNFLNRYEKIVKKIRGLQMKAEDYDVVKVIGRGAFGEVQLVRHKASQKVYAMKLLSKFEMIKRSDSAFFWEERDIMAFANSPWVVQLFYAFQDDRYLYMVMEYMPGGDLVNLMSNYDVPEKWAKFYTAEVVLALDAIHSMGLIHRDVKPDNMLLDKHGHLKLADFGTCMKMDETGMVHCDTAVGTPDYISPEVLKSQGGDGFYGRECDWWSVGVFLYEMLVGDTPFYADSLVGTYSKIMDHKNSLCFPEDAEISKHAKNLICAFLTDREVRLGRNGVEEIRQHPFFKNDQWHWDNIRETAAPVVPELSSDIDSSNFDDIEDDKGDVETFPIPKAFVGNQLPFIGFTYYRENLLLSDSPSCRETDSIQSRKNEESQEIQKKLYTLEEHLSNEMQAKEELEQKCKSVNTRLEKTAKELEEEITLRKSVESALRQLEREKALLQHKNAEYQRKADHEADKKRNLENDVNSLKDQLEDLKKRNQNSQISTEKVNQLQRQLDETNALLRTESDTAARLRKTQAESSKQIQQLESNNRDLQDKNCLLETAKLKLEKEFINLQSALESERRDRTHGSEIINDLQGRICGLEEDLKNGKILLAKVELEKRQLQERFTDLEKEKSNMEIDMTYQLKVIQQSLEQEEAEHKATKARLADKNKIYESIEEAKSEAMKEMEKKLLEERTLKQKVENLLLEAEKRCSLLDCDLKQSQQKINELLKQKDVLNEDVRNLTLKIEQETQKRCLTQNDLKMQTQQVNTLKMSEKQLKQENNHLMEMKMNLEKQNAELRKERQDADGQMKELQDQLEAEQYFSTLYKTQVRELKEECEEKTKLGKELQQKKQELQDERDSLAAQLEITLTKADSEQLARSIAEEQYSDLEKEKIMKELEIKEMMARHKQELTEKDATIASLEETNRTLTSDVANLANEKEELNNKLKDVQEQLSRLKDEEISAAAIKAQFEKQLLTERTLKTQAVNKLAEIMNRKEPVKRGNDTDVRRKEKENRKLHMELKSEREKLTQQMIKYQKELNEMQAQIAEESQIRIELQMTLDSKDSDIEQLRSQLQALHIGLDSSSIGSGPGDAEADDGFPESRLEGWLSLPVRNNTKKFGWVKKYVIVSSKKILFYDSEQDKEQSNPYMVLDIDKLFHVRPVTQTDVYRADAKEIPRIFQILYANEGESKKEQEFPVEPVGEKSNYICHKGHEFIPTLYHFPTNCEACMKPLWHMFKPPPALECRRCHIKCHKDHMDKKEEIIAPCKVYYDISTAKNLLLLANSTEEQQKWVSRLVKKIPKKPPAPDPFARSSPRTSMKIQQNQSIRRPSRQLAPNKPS"}
{"data": "Study 1", "target": "Eukaryotic initiation factor 4A-I (EIF4A1, Homo sapiens, UniProt P60842, residues 1-406, full length assumed)", "method": "RNA Bind-n-Seq", "molecule type": "RNA", "matrix": "in vitro", "concentration": "15 pmol", "setting": "4-mer, random 30-nt RNA, single round", "together with": "DMSO vehicle, 2 mM AMP-PNP", "relative to": "input library", "direction": "higher = stronger binding", "UniProt P60842, sequence (whole entry, looked up)": "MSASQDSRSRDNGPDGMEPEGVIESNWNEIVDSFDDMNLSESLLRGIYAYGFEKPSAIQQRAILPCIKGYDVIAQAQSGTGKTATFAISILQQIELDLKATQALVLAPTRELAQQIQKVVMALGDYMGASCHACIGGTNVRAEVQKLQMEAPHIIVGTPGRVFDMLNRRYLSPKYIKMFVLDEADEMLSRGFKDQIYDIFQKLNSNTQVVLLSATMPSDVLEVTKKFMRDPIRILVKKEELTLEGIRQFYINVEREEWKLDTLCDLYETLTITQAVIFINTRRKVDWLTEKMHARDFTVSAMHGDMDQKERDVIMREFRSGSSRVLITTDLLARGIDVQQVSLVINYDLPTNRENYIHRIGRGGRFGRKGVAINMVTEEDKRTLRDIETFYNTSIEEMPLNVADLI"}
{"Strand": "GCUC", "4-mer enrichment [fold]": 1.06}
{"Strand": "AGAA", "4-mer enrichment [fold]": 1.33}
{"Strand": "UAGG", "4-mer enrichment [fold]": 0.706}
{"Strand": "CCGA", "4-mer enrichment [fold]": 1.07}
{"Strand": "CGCG", "4-mer enrichment [fold]": 0.866}
{"Strand": "UAUA", "4-mer enrichment [fold]": 0.694}
{"Strand": "UUUG", "4-mer enrichment [fold]": 0.864}
{"Strand": "UAAC", "4-mer enrichment [fold]": 1.2}
{"data": "Study 2", "Compound": "COc1ccc2c(c[n+](C)c3c4cc5c(cc4ccc23)OCO5)c1OC", "observed": "enzyme activity", "action": "inhibitor", "concentration": "0.5 µM", "relative to": "control"}
{"target": "ROCK2 (Homo sapiens, UniProt O75116)", "remaining activity [%]": 92.5}
{"target": "ROS1 (Homo sapiens, UniProt P08922)", "remaining activity [%]": 119}
{"target": "CAMK1G (Homo sapiens, UniProt Q96NX5)", "remaining activity [%]": 100}
{"data": "Study 3", "target": "vanadate, free oxyanion", "method": "microfluidic competitive inhibition", "matrix": "in vitro, cell-free expressed", "concentration": "not given", "setting": "derived from inhibition constants, unchanged parent 676 nM", "direction": "lower = stronger binding", "parent": "PafA, mature enzyme, eGFP fusion (Elizabethkingia meningoseptica, UniProt Q9KJX5); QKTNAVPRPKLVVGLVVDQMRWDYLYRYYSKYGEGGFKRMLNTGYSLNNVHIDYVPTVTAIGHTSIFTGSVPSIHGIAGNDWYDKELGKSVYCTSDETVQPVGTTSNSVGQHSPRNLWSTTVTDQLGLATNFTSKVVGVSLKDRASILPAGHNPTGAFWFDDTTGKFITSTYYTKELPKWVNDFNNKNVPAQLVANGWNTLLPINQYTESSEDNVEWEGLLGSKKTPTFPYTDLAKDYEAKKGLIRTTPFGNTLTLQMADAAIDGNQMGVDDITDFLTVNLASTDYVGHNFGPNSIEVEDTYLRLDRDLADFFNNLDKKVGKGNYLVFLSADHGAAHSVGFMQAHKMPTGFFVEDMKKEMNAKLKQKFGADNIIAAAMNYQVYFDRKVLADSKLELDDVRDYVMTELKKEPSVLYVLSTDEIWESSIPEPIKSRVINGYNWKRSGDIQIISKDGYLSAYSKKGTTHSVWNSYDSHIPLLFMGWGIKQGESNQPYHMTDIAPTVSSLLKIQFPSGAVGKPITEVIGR"}
{"Substitution": "D391V", "oxyanion analog dissociation constant [nM]": 719}
{"Substitution": "F158V", "oxyanion analog dissociation constant [nM]": 681}
{"Substitution": "S106V", "oxyanion analog dissociation constant [nM]": 504}
{"Substitution": "V279A", "oxyanion analog dissociation constant [nM]": 571}
{"Substitution": "L414V", "oxyanion analog dissociation constant [nM]": 698}
{"data": "Study 4", "target": "ABI1, truncated, D143A, DHFR fusion (Arabidopsis thaliana, UniProt P49597)", "method": "DHFR PCA, dose-response", "matrix": "yeast", "setting": "Hill fit, mean, not affinity", "together with": "(+)-ABA, dose series", "direction": "lower = more sensitive", "parent": "PYL1, truncated, DHFR fusion (Arabidopsis thaliana, UniProt Q8VZS8); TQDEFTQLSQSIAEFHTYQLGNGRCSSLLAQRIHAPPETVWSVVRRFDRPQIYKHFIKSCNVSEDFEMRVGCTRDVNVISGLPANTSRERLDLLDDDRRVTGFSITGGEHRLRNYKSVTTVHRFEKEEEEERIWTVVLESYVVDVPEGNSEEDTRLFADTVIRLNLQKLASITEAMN"}
{"Substitution": "D96W", "ABA EC50 [µM]": 251}
{"Substitution": "Q19S", "ABA EC50 [µM]": 1.92}
{"Substitution": "D3R", "ABA EC50 [µM]": 3.75}
{"Substitution": "V70L", "ABA EC50 [µM]": 11.4}
{"Substitution": "R46Y", "ABA EC50 [µM]": 170}
{"Substitution": "L138C", "ABA EC50 [µM]": 32.7}
{"Substitution": "N85A", "ABA EC50 [µM]": 2.61}
{"Substitution": "L28A", "ABA EC50 [µM]": 72.8}
{"data": "Study 5", "target": "CCND1, cyclin fold, Cln2 fusion (human)", "method": "yeast growth competition, sequencing", "matrix": "yeast", "setting": "weak parent motif", "relative to": "not given", "direction": "higher = stronger binding", "parent": "viral docking peptide; TSVRRALFTGGSD; partner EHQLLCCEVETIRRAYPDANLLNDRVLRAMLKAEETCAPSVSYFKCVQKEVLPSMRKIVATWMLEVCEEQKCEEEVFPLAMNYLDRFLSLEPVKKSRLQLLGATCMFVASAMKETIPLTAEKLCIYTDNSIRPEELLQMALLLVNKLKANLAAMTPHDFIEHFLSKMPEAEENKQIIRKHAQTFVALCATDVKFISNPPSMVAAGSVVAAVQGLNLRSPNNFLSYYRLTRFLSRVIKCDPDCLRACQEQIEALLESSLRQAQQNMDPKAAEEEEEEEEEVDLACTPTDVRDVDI"}
{"Substitution": "TSVRRAPFTGGSD [L7P]", "normalised enrichment score": -0.0284}
{"Substitution": "TSVRRAIFTGGSD [L7I]", "normalised enrichment score": 0.14}
{"Substitution": "TSVRRALFTGISD [G11I]", "normalised enrichment score": 0.177}
{"Substitution": "TSVRRTLFTGGSD [A6T]", "normalised enrichment score": 0.134}
{"Substitution": "TSVRRALFTIGSD [G10I]", "normalised enrichment score": 0.395}
{"Substitution": "TSVRRAGFTGGSD [L7G]", "normalised enrichment score": 0.0131}
{"Substitution": "TSVRRPLFTGGSD [A6P]", "normalised enrichment score": -0.0771}
{"Substitution": "TSVRRALFTGGVD [S12V]", "normalised enrichment score": 0.368}
{"Substitution": "TSVRRELFTGGSD [A6E]", "normalised enrichment score": 0.747}
{"Substitution": "THVRRALFTGGSD [S2H]", "normalised enrichment score": 0.535}
{"Substitution": "TSERRALFTGGSD [V3E]", "normalised enrichment score": 0.111}
{"Substitution": "TSVRRALFLGGSD [T9L]", "normalised enrichment score": 0.474}
{"Substitution": "TSVRPALFTGGSD [R5P]", "normalised enrichment score": 0.85}
{"Substitution": "TSSRRALFTGGSD [V3S]", "normalised enrichment score": -0.0772}
{"Substitution": "TSVRAALFTGGSD [R5A]", "normalised enrichment score": 0.276}
{"Substitution": "TSVRRAMFTGGSD [L7M]", "normalised enrichment score": 0.184}
{"Substitution": "TSVRRALFTGLSD [G11L]", "normalised enrichment score": 0.271}
{"Substitution": "TSVIRALFTGGSD [R4I]", "normalised enrichment score": 0.87}
{"Substitution": "TCVRRALFTGGSD [S2C]", "normalised enrichment score": 0.41}
{"note": "A few entries again (study 4):"}
{"Substitution": "R46Y", "ABA EC50 [µM]": 170}
{"Substitution": "V70L", "ABA EC50 [µM]": 11.4}
{"Substitution": "D3R", "ABA EC50 [µM]": 3.75}
{"Substitution": "N85A", "ABA EC50 [µM]": 2.61}
{"Substitution": "D96W", "ABA EC50 [µM]": 251}
{"Substitution": "L138C", "ABA EC50 [µM]": 32.7}
